{"data": "Assay results of several laboratories", "note": "A part holds a random share of what one study measured."}
{"data": "Series 1", "target": "TATA-box-binding protein 1 (TBP1, Arabidopsis thaliana, UniProt P28147, residues 1-200, full length assumed)", "method": "protein-binding microarray", "form": "double-stranded DNA, one strand shown", "medium": "in vitro", "tested at": "not given", "setting": "k-mer, scored over probes, only values ≥0.25", "reading": "higher = stronger binding", "Residues (chain)": "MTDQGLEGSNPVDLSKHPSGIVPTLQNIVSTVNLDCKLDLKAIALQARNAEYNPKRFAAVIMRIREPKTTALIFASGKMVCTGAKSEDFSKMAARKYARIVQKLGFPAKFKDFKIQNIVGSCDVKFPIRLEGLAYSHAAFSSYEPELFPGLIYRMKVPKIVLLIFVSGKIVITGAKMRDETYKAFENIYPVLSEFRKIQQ"}
{"Sequence": "ATATCGC", "E-score": 0.282}
{"Sequence": "ATTAAGG", "E-score": 0.295}
{"Sequence": "AAACATA", "E-score": 0.275}
{"Sequence": "TATATGA", "E-score": 0.412}
{"Sequence": "CTTTTTA", "E-score": 0.381}
{"Sequence": "GAGTATA", "E-score": 0.384}
{"Sequence": "GACTTAA", "E-score": 0.26}
{"Sequence": "GTTAAAA", "E-score": 0.338}
{"Sequence": "ATAACAT", "E-score": 0.319}
{"Sequence": "GTACATA", "E-score": 0.278}
{"Sequence": "ATTTCTA", "E-score": 0.287}
{"Sequence": "TAAAAAA", "E-score": 0.371}
{"Sequence": "ATATGCG", "E-score": 0.304}
{"data": "Series 2", "target": "Sal-like protein 4, full length isoform A (SALL4, Homo sapiens, UniProt Q9UJQ4, residues 1-1053)", "method": "universal PBM", "form": "double-stranded DNA, one strand shown", "medium": "in vitro", "tested at": "600 nM", "setting": "8-mer, flanks averaged, mean of replicates", "reading": "higher = stronger binding", "UniProt Q9UJQ4, sequence (whole entry, looked up)": "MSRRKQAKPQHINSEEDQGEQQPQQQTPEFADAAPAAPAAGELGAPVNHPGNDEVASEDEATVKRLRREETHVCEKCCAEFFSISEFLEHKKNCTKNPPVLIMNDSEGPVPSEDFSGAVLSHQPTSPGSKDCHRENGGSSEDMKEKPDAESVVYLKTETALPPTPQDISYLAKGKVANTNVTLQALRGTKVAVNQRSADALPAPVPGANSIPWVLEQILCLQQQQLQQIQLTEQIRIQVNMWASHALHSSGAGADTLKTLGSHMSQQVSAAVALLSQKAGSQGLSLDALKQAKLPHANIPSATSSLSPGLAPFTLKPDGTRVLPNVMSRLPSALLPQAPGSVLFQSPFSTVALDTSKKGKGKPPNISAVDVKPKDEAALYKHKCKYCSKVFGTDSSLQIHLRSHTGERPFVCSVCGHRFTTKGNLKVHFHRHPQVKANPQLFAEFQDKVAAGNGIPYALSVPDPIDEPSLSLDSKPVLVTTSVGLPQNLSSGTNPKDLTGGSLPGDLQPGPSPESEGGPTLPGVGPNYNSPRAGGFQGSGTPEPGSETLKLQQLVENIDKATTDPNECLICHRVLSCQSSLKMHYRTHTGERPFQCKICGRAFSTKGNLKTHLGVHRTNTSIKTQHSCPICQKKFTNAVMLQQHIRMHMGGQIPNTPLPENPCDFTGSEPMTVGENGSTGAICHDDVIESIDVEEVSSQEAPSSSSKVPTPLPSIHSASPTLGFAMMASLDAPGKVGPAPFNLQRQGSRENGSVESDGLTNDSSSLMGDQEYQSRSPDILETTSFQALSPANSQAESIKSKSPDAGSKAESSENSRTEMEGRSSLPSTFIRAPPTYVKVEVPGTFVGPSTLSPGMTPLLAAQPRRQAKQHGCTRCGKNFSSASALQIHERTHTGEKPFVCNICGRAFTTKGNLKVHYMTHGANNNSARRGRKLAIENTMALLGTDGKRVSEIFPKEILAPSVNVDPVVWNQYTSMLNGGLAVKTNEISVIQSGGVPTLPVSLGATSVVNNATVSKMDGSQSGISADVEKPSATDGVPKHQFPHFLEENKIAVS"}
{"Sequence": "CGCGATGA", "E-score": -0.000545}
{"Sequence": "ACCGCACC", "E-score": -0.307}
{"Sequence": "TCTGGTAA", "E-score": 0.0641}
{"Sequence": "AGTATGTC", "E-score": 0.116}
{"Sequence": "CACCCCCC", "E-score": -0.361}
{"Sequence": "CGGATATC", "E-score": 0.0344}
{"Sequence": "GCAGAAGA", "E-score": -0.0286}
{"Sequence": "AAGGTGAT", "E-score": 0.0446}
{"data": "Series 3", "target": "RING finger protein unkempt homolog, zinc fingers 1-6, GST-SBP tag (UNK, Homo sapiens, UniProt Q9C0B0, residues 30-357)", "method": "RNA Bind-n-Seq", "form": "RNA", "medium": "in vitro", "tested at": "not given", "setting": "RNA with constant flanks, ends assumed", "baseline": "input RNA pool", "reading": "higher = stronger binding", "constant ends, left off below": "GGGAGUUCUACAGUCCGACGAUC … CAACAGAGGAUUGAGCAUCA", "Construct (chain)": "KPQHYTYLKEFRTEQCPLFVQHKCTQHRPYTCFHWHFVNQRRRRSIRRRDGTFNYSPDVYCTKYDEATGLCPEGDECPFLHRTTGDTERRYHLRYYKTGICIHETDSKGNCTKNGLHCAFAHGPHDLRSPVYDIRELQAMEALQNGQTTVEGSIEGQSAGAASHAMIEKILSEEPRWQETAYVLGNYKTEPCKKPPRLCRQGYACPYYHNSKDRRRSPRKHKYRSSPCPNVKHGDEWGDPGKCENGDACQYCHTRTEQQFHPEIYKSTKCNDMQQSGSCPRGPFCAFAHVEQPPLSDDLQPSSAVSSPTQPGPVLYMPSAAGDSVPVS"}
{"Sequence": "CAGAGCAUAGCGAUUGUUUUUGGCCCCACCCUUCUAAAGCCAGAAAGAGAGACUGGUAAUACCGCAGUUCAUACUGUGUACCAGAACCAGAUUGUAGAGCUGAUUCUCCUGGAAUUAAGC", "bound/input enrichment [ratio]": 0.266}
{"Sequence": "GAUAUUCAUUUGAAUGAAAUGGCUGGAGACAUCUUAGUUUUUCUGACUGGCCAGUUUGAGACCGAGAAGAGUUGCGAGCUGCUCUUUCAGAUGGCGGAGUCUGUUGACUAUGAUUAUGAU", "bound/input enrichment [ratio]": 0.171}
{"Sequence": "AACAUUACUGUGCUAAGGAGCCAGUGUGAUGCUGCUUCCCAGACGGUUACUGGUCAUCAUUCCGAAACCCAUGAUUUAAAGAUUCUCAUUAGCUCUGGACAGCAGAAGUCAUUGGCUAAA", "bound/input enrichment [ratio]": 0.066}
{"Sequence": "GGGUUUGGGGUAGAAGGGAGGGAGGGGGCAGGACAGUGUGGAAUCUCUAGGGUGUAUGGGCCGGCCGGGGGCACAGUUAGUUCUAAGUGGGCUUUUAUGCUAAAAGCCUCUGGGGAUAUC", "bound/input enrichment [ratio]": 9.68}
{"Sequence": "AAUGUGUCCAUGCAAAAUGCUGUGAAUGAGCCUGUACAGAAACUAAUGCGGAAAAAGCAAUCCGACGCCGCAGAAUUUAGCAUCUAUUGGGAUGUCGAUUGCACUUUACUGGGGGAUUUG", "bound/input enrichment [ratio]": 0.344}
{"Sequence": "GUUCUUACCACUUCUCUUCCUCCUCACCCCAGAUACUUCCUCUUCCCCACAACCAAUGUACACCGUAAUUGUAAUGUUUUAGACUUGACAGAAACUUUCCUGUAUUCUGUAUAUAAAAAC", "bound/input enrichment [ratio]": 1.34}
{"data": "Other studies, line by line"}
{"Molecule": "PhoQ, residues 284 288 289 292 302 303 TAVSDG", "target": "PhoP, residues 12 14 15 18 19 NMSSL (Escherichia coli, UniProt P23836)", "assay": "Sort-seq, measured: YFP reporter", "system": "E. coli", "conditions": "PhoQ-PhoP variant library, with: 10 µM Mg2+", "scale": "baseline: high Mg2+ state, higher = stronger signaling", "quantity": "fold induction", "value": 4.61}
{"note": "A few entries again (series 1):"}
{"Sequence": "ATATCGC", "E-score": 0.282}
